Measurements gathered from unrelated publications.
Compare with care: the assays were run in different laboratories. Values joined by “and” are separate records of one study, mostly repeats; a detail may differ. Numbers after ± are the reported error.

| SMILES | assay | test system | conditions | scale | measurement | value |
| --- | --- | --- | --- | --- | --- | --- |
| CC(C)(C)CC(C)(C)c1ccc(OCCOCC[N+](C)(C)Cc2ccccc2)cc1 | fEPSP | male C57BL/6J mouse, hippocampal slices, Schaffer collateral-CA1 | 0.3 to 10000 nM, interpulse interval 50 ms |  | paired-pulse facilitation | no effect |
| COc1ncc(-c2nc3c(n2C(C)C)[C@H](c2ccc(Cl)cc2)N(c2cc(Cl)cn(C)c2=O)C3=O)c(OC)n1 | antileukemic activity, item: treatment failure, resistant disease | human, acute myeloid leukaemia | 350 to 400 mg, high-dose, other doses |  | best overall response | 50% |
| [131I-].[Na+] | ATA response criteria | human, papillary thyroid cancer with metastases | 3700 MBq |  | structural incomplete response | 18.6% |
| CCOCc1nc(O)c(-c2nnc(Cc3ccc(Cl)cn3)o2)c(O)c1-c1c(OC)cccc1OC |  | renal hypertensive rat | sc infusion, 0.192 mg/kg/day, repeat dosing | relative to: vehicle | stroke volume change | 39% |
| C=CCNc1c(O)cc2c(O)c1C[C@@H](C)C[C@H](OC)[C@H](O)[C@@H](C)/C=C(\C)[C@H](OC(N)=O)[C@@H](OC)/C=C\C=C(/C)C(=O)N2 | RECIST v1.0 | human soft tissue sarcoma | concentration not given, best response |  | patients with progressive disease | 24% |
| CN1CCN(S(=O)(=O)c2cc([N+](=O)[O-])ccc2N(CCOS(C)(=O)=O)CCOS(C)(=O)=O)CC1 |  | NSG mice, sample BI PDX | intraperitoneal, 25 mg/kg weekly x3 | relative to: vehicle | EFS delay (T-C) | 34.9 days |
| Cc1cn(-c2cc(NC(=O)c3ccc(C)c(Nc4nccc(-c5cccnc5)n4)c3)cc(C(F)(F)F)c2)cn1 |  | Alzheimer's disease patients | dose not given, baseline, group mean | direction not given | ADCS-ADL score | 57.8 ± 12.2 |
| CCSc1nc2ccccc2n1Cc1nnc(-c2ccc([N+](=O)[O-])cc2)o1 | relaxation | isolated rabbit jejunum | spontaneous contractions |  | EC50 | 0.22 ± 0.04 mg/L |
| CCCCC1CNC2CCc3ccc(OC)cc3C12.Cl (racemic) | RNA sequencing | SAMP8 mice, hippocampus | intracerebroventricular, 1.0 µg/µL, 24 h | relative to: vehicle | downregulated genes count | 77 |
| CC[C@H](C)[C@@H]1NC(=O)[C@@H]2CCCN2C(=O)[C@H](CC(C)C)NC(=O)[C@H](CC(C)C)NC(=O)CNC(=O)[C@@H](NC(=O)[C@@H](NC(=O)[C@H](CC(=O)O)NC(=O)CNC(=O)[C@@H](NC(=O)[C@H](C)NC(=O)CNC(=O)[C@H](CCCCN)NC(=O)[C@H](CC(C)C)NC(=O)[C@H](CC(C)C)NC(=O)[C@H](CCCCN)NC(=O)CNC(=O)[C@@H](NC(=O)[C@@H](N)CC(C)C)C(C)C)C(C)C)C(C)C)CSSC[C@@H](C(=O)O)NC1=O | RNA-seq, item: Trim43a mRNA | mouse traumatic brain injury, frontal cortex and hippocampus | dose not given | relative to: TBI plus compound vs TBI | log2 fold change | 1.4 |
| CC(C)C1CCC(N2CCC(N3C(=O)C(=O)c4ccccc43)CC2)CC1 (stereo not drawn) |  | conscious Sprague-Dawley rat | intravenous bolus, 100 nmol/kg |  | mean arterial pressure change | decreased |
| C[C@H]1O[C@@H](O[C@H]2CC[C@@]3(C)[C@@H](CC[C@]4(C)[C@@H]3C=C[C@]35OC[C@@]6(CCC(C)(C)C[C@H]63)[C@@H](O)C[C@]54C)[C@]2(C)CO)[C@H](O)[C@@H](O[C@@H]2O[C@H](CO)[C@@H](O)[C@H](O)[C@H]2O)[C@H]1O |  | mouse, ethanol-fed, hepatic SIRT1 knockdown | dose not given, high dose |  | liver to body weight ratio | 4.86% and 5.62% and 5.76% and 6.43% and 5.81% and 5.99% |
| COc1ccc([C@@]23Oc4cc(OC)cc(OC)c4[C@@]24N=C(C2CC2)N[C@@]4(O)[C@H](C(=O)N(C)OC)[C@H]3c2ccccc2)cc1 | mRNA translation | Krebs-2 cell extracts |  |  | EC50 | 0.055 µM |
| CCSc1nc2ccccc2n1Cc1nnc(-c2cc(OC)c(OC)c(OC)c2)o1 | relaxation, calcium antagonist | isolated rabbit jejunum | together with: 80 mM K+ contraction |  | EC50 | 0.45 ± 0.05 mg/L |
| CCCCC1(CCCC)CN(c2ccccc2)c2cc(SC)c(OCC(=O)N[C@@H](C(=O)NCC(=O)O)c3ccccc3)cc2S(=O)(=O)C1 | item: HDL cholesterol | human, serum | 2.5 mg once daily, day 13 |  | serum HDL-C | 52.1 mg/dL |
| CCSc1nc2ccccc2n1Cc1nnc(-c2ccc(F)cc2)o1 | relaxation, calcium antagonist | isolated rabbit jejunum | together with: 80 mM K+ contraction |  | EC50 | 0.88 ± 0.03 mg/L |
| O=c1c(O)c(-c2ccc(O[C@@H]3O[C@H](CO)[C@@H](O)[C@H](O)[C@H]3O)c(O)c2)oc2cc(O)cc(O)c12 | Fe3+ reduction, ferricyanide reduction |  | 30 µg/mL |  | absorbance | 1.01 ± 0.093 |
| CNC(=O)c1c(C)oc2cc(Oc3ccnc4cc(OCCN5CCOCC5)ccc34)ccc12 | DCE-MRI | human, tumour | 4 mg twice daily, day 2 |  | decrease in IAUC | 22.6% |
| CCSc1nc2ccccc2n1Cc1nnc(-c2ccccc2Cl)o1 | relaxation | isolated rabbit jejunum | spontaneous contractions |  | EC50 | 0.16 ± 0.21 mg/L |
| C[C@]1(CO)Cc2ncn(-c3ccc(C#N)c(Cl)c3)c2C(=O)O1 |  | human, plasma | concentration not given, European SRD and MRD studies |  | plasma ACTH | no effect |
| Cc1nc(Nc2ccc(CC(=O)O)cc2)nc(Nc2ccc(F)c(C(F)(F)F)c2)c1C |  | C57BL/6J mouse, high-fat diet MASH model | intraperitoneal, 0.3 mg/kg daily, 60% fat diet for 12 weeks, dosed final four weeks | relative to: untreated | gonadal white adipose weight | decreased |

Repeated from above:
| SMILES | assay | test system | conditions | scale | measurement | value |
| --- | --- | --- | --- | --- | --- | --- |
| COc1ccc([C@@]23Oc4cc(OC)cc(OC)c4[C@@]24N=C(C2CC2)N[C@@]4(O)[C@H](C(=O)N(C)OC)[C@H]3c2ccccc2)cc1 | mRNA translation | Krebs-2 cell extracts |  |  | EC50 | 0.055 µM |
| CCSc1nc2ccccc2n1Cc1nnc(-c2ccccc2Cl)o1 | relaxation | isolated rabbit jejunum | spontaneous contractions |  | EC50 | 0.16 ± 0.21 mg/L |
